Measurements collected from several papers.
Every numbered part comes from another study and shows a few of its results, in no order. Changes are numbered by the printed parent chain.

Study 1
Target: Histone acetyltransferase KAT6A, winged helix 2, GST fusion (KAT6A, Homo sapiens, UniProt Q92794, residues 85-181)
Technique: protein binding microarray
Molecule type: double-stranded DNA, one strand shown
Medium: in vitro
Concentration: not given
Notes: 8-mer, flanks averaged, mean of 2 arrays, mostly near background
Relative to: not given
Reading: higher = stronger binding
Residues (chain): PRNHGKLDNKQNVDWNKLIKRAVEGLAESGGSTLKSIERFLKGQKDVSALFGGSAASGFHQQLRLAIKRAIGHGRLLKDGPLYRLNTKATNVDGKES
| Oligonucleotide | E-score |
| --- | --- |
| AGCACAAG | -0.0879 |
| ATTTGCCC | 0.0408 |
| AAGGGCGG | 0.0324 |
| TCCGTCGA | -0.0154 |
| TGCGGAAA | 0.0649 |
| CCTGCCCG | 0.188 |
| GCTTACTA | 0.0841 |
| ACAGGCCT | -0.161 |
| AGACGTTA | -0.251 |
| GCGCCCAC | 0.189 |
| GGCGGCCC | 0.131 |
| GCTGCCAC | 0.12 |
| ATCGTAAG | -0.0634 |
| CAGTATGG | 0.0907 |
| AAGGTTAT | -0.0334 |
| GGTCCGAA | 0.141 |
| ACGTTTGC | -0.0192 |
| CTCTCCAC | -0.204 |
| GAAGGCGC | 0.158 |
| TCGTCTCA | -0.0817 |
| AATTCCTC | 0.00717 |
| CGGACGAC | 0.0474 |
| CAGGTGGA | 0.052 |
| CGCCTCGA | 0.252 |
| AGTCGCGC | 0.166 |

Study 2
Target: RING finger protein unkempt homolog, zinc fingers 1-6, GST-SBP tag (UNK, Homo sapiens, UniProt Q9C0B0, residues 30-357)
Technique: RNA Bind-n-Seq
Molecule type: RNA
Medium: in vitro
Concentration: not given
Notes: RNA with constant flanks, ends assumed
Relative to: input RNA pool
Reading: higher = stronger binding
All sequences stand within: GGGAGUUCUACAGUCCGACGAUC … CAACAGAGGAUUGAGCAUCA
Target sequence (chain): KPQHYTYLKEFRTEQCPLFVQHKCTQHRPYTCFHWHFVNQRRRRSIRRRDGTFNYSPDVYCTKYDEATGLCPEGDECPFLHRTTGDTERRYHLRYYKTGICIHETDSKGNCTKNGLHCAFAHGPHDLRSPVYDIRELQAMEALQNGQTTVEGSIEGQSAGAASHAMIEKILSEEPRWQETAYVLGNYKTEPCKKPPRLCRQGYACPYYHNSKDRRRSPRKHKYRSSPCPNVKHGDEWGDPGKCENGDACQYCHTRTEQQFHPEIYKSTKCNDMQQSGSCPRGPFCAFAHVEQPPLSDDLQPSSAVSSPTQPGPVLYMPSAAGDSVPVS
| Oligonucleotide | bound/input enrichment [ratio] |
| --- | --- |
| CAAACGUGGGUGUUGGUGUGGACGGGGCGCAGAUCUCCGUGGAUGAACUGCGUCUGGACUCUCCGAUUCAUAAAAUAUUCGAGGGUUUGGGAGUCACAGACCCUCCCCUCUCCUCAGUGC | 0.114 |
| UCAAGGGCACGAGCAUCGGCCAUGCCUUUCUUGGACAUCCAGAAAAGGUUCGGCCUUAACACCGAUCGAUGGUUGACAAUCCAGAGUGGUGAACAGCCCUACAAGAUGGCUGGUCGAUGC | 0.102 |
| UUAGCAUGCUGUAUGCCUCCCUCGUACAGUACAUCAGUUUACACUCUGAAGGCGUUCCCGAACCGUGUUGCCUAGUUUAAGGAAAGGGUAUUACAGUGUUCUUCACAACUUAAGAAUUUU | 0.408 |
| UCCAGUCCAAGGGAAGAGGAGAUCCCGCCCCUCUUUUGGGGUCUGGAUCCUGUGUUUCCCGCCUUUGCAAAACUCUACAUCAAGGAUAUCCUGGAGAUGAAGGAGUCCCAACAAGUGCCA | 0.0927 |
| GCUGUCAGGCCUCAUCCACUGUGAAUCCCCCAGGUUCUUAAAACUUUAAAAUUUUUGAAUUUCCGAUAAUUAUGGAAUUAAUGCAAUGUCACACACUACUGUUAACUCUGUGGCCAAUUA | 1.19 |
| GAAGCAGCAGCACUGCUAGAAAGUGGCAGUUCAGUGGGAGACGAGACCGAUCUUGCUAAUUCCGGUGAUGUGGCUUCUGAUGGGAAAAAGGAACCAUCAGAUAAAGCUGUGAAAAAAGAU | 0.16 |
| GCAUAUUAUAUCAGACUGCUUUGAGAAAUCUCAUCCCUAGUCUAUUGCAGUUGUUUCUAUCCGCUUACUGAUUAACUCAGUCCUGACACACCUUUUGGGAAAUGCUGAUUUAAACUUCUU | 0.889 |
| CAACAGCAGCGAUUACUAGACAUUGCCAAGAAGGAAAAUGUCAAAAUUAGUGAUGAGGGAACCGCUUAUCUUGUUAAAGUGUCAGAAGGAGACUUAAGAAAAGCCAUUACAUUUCUUCAA | 0.302 |

Study 3
Target: Interferon regulatory factor 5, full length, phosphomimetic (IRF5, Homo sapiens, UniProt Q13568-2, residues 1-514, S451D/S453D/S456D/S462D)
Technique: protein-binding microarray
Molecule type: double-stranded DNA, one strand shown
Medium: in vitro
Concentration: 940 nM top
Notes: 60-bp whole probe
Added: salmon DNA 0.4 mg/ml
Relative to: random background probes
Reading: higher = stronger binding
All sequences stand within: GCCTAGCAC … GTCTTGATTCGCTTGACGCTGCTG
| Oligonucleotide | fitted relative affinity [z-score] |
| --- | --- |
| CTAATTTTCAATTCCTGAAAGTGCTAG | 0.656 |
| TTAGATTGCAGTCTCGATTAGTGCTAG | 2.19 |
| AGCACTCCAGAGGCAGAGGCGTGCTAG | -0.47 |
| GACGATCTCAGTTTCGAGAGGTGCTAG | 3.43 |
| TCATGTACGTCGTTTCCCACTGTGCTA | 0.405 |
| TCTGTTTTCTCCATGGAAGAGTGCTAG | 1.43 |
| GACGATCTCAGTTTCCAGACGTGCTAG | 0.683 |
| GACGAACTGGGGTTTCGAGACGTGCTA | 1.88 |
| TCAGATATAGGATAACGAACTGTGCTA | 0.122 |
| CCGTGTTTCTCAAATGTTTTGGTGCTA | 0.93 |
| TCCTCTGTCATTTTCTCTTAGTGCTAG | 1.9 |
| GACGGTTTCGGTTCAGGGACGTGCTAG | 13.2 |
| GACGGACTGCTTCTCCCGACGTGCTAG | 0.223 |
| GACGATTTCAGTTCCGAGAAGTGCTAG | 0.825 |
| TTAGGACTGGGATTTCGGTTAGTGCTA | -0.07 |
| GACGATTCCAGTTTCGTGACGTGCTAG | 2.13 |

Study 4
Target: ABI1, truncated, D143A, DHFR fusion (Arabidopsis thaliana)
Technique: DHFR PCA, deep sequencing
Medium: yeast
Notes: methotrexate growth selection, single substitutions
Added: (+)-ABA 200 µM
Relative to: wild-type fitted maximum
Reading: higher = stronger binding
Starting sequence: PYL1, truncated, DHFR fusion (Arabidopsis thaliana); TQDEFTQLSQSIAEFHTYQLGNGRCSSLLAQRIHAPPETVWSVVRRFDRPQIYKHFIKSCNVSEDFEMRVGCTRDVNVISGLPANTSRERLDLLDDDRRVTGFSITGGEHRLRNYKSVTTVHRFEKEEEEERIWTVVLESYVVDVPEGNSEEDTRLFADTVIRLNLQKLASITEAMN; partner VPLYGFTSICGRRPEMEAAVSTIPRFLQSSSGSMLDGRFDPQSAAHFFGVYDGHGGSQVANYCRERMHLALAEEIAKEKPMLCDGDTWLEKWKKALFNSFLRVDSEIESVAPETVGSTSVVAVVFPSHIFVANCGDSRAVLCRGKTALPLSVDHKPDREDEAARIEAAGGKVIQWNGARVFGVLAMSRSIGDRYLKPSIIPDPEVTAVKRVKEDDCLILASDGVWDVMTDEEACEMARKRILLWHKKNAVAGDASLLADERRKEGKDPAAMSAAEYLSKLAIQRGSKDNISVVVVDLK
| Substitution | relative binding score [%] |
| --- | --- |
| Q7N | 96.6 |
| E174R | 82.7 |
| F56Y | 88.3 |
| E130V | 106 |
| L94P | -14.4 |
| R90V | 94.4 |
| L94F | 105 |
| L156T | 100 |
| A35W | 8.6 |
| H55Q | 110 |
| R99Q | 96.7 |
| F47Y | 65.9 |
| S117K | -6.65 |
| R163P | 4.54 |
| V142T | 94.6 |
| K58N | 87.4 |

Study 5
Target: CCND2, cyclin fold, Cln2 fusion (human)
Technique: yeast growth competition, sequencing
Medium: yeast
Notes: weak parent motif
Relative to: not given
Reading: higher = stronger binding
Starting sequence: E2F1 docking peptide (human); PPVKRRLDLETDH; partner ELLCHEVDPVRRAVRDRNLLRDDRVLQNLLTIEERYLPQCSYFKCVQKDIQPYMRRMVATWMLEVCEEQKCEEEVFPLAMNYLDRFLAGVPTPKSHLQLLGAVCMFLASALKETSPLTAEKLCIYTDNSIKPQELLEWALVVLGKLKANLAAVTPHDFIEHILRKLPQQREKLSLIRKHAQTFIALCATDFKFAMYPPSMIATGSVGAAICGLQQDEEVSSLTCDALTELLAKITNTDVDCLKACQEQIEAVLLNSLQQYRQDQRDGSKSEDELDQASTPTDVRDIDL
| Substitution | normalised enrichment score |
| --- | --- |
| D12T | -0.217 |
| P2V | 0.00941 |
| R5T | 0.0363 |
| P1C | 0.0887 |
| K4T | -0.283 |
| H13R | 0.0509 |
| D12R | 0.0658 |
| D8G | 0.642 |
| R5L | 0.00678 |
| D12I | -0.376 |
| L7H | -0.138 |
| P2S | 0.189 |
| T11S | 0.282 |
| K4L | 0.154 |
| L7N | 0.0685 |
| D12A | 0.221 |
| P2G | 0.283 |
| K4A | 0.411 |
| K4V | 0.331 |

Mixed results
| Substance | target | test | system | setting | how to read | measurement | value |
| --- | --- | --- | --- | --- | --- | --- | --- |
| PhoQ, residues 284 288 289 292 302 303 TTSMTC | PhoP, residues 12 14 15 18 19 AQCLL (Escherichia coli, UniProt P23836) | Sort-seq, measured: YFP reporter | E. coli | PhoQ-PhoP variant library, added: 10 µM Mg2+ | relative to: high Mg2+ state, higher = stronger signaling | fold induction | 3.39 |

A few entries again (study 3):
| Oligonucleotide | fitted relative affinity [z-score] |
| --- | --- |
| GACGATCTCAGTTTCGAGAGGTGCTAG | 3.43 |
| CTAATTTTCAATTCCTGAAAGTGCTAG | 0.656 |
| GACGGTTTCGGTTCAGGGACGTGCTAG | 13.2 |
| GACGATTTCAGTTCCGAGAAGTGCTAG | 0.825 |
| TCTGTTTTCTCCATGGAAGAGTGCTAG | 1.43 |
| TCAGATATAGGATAACGAACTGTGCTA | 0.122 |
| TTAGATTGCAGTCTCGATTAGTGCTAG | 2.19 |
| TCCTCTGTCATTTTCTCTTAGTGCTAG | 1.9 |
| TTAGGACTGGGATTTCGGTTAGTGCTA | -0.07 |
